Measured values gathered from unrelated publications.
Each numbered part is a random draw from the data of one study; scales do not carry over between parts.

Series 1 — technique: competition protein-binding microarray; form: double-stranded DNA, one strand shown; medium: in vitro; tested at: 2 µM; added: Pho4 competitor, 0.05 µM; reading: higher = stronger binding; constant ends, left off below: … GTCTTGATTCGCTTGACGCTGCTG
Target: Centromere-binding protein 1, full length, His-tagged (CBF1, Saccharomyces cerevisiae, UniProt P17106, residues 1-351)
UniProt P17106, sequence (whole entry, looked up): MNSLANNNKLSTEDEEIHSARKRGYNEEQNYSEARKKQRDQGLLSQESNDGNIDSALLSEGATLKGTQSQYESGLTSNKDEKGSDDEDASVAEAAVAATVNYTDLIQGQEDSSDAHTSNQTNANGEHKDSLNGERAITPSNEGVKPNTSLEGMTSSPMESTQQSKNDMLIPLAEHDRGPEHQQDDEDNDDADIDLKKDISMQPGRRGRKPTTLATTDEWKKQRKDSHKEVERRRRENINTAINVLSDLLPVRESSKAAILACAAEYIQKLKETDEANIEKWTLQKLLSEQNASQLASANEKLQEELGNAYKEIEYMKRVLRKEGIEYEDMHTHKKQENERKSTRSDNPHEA
Notes: whole 60-bp probe, lowest competitor level
Oligonucleotide	fluorescence intensity [a.u.]
CTTCCTTCTTTGAAACACGTTTCTTAATTGCACTTG	128
AGGTTTTGCGGCCATCACGTTCGTCGGGACATATGA	126
CGTTGGGCTGAAGACGACATGATAATTAAGAGAGCC	68
AAATTACTAAGTTGAGGGGTGGGTGACGCCGTATGA	79.1
CGGGGTTAAGTTTGGAAAGTGGGTGGCTTGCAGCAG	64.6
TGCGCAACAACTTGTGAGGTGGGTGTATGTCTAGAA	71
CTTCTGTAAATTTTTCACGTGGATTGACGCGCCCCG	569
CGTAACGTTCTGCTCATCGTGACGGTGGGAGAGCCA	72.8
AAAGCGGTAATTTTTCACGTGCGATCAAATATCTAT	1220
CCTTGTTCCGGAGCGCACATGGCATTTCAAGGTCAA	99.5
CGTCCTAGTGATTTTCACGTGTAATCCATGAGGAAG	859
CAGGGATCAGGGCACCACGTGGGGGAAGGACTGTGT	655
TTTGTCCTGAGCAATCACCTGATAGTAACGCACCAG	541
AAATTACTAAGTTGCAACGTGGGTGACGCCGTATGA	91.3
CGCCGTTCAGGGGTCCATGTGCCTTGGACGATATTA	70.1
ATTACTAAAGCCTCTCATGTGTTCTACGCCCATTGT	76.6
CGGGGTTAAGTTTGGTGAGTGGGTGGCTTGCAGCAG	57.7
GTCTTGTCTCATTGAGACGTGGGTGTCCCCACTTCA	68.9
TTTAGTCGATACCAACACGTGGAACAATACTCAAAT	723

Series 2 — technique: RNA Bind-n-Seq; form: RNA; medium: in vitro; tested at: 1 µM; notes: whole 134-nt RNA, ends assumed; added: 150 mM KCl; relative to: input library; reading: higher = stronger binding
Target: Ras GTPase-activating protein-binding protein 1, RRM domain (G3BP1, Homo sapiens, UniProt Q13283)
UniProt Q13283, sequence (whole entry, looked up): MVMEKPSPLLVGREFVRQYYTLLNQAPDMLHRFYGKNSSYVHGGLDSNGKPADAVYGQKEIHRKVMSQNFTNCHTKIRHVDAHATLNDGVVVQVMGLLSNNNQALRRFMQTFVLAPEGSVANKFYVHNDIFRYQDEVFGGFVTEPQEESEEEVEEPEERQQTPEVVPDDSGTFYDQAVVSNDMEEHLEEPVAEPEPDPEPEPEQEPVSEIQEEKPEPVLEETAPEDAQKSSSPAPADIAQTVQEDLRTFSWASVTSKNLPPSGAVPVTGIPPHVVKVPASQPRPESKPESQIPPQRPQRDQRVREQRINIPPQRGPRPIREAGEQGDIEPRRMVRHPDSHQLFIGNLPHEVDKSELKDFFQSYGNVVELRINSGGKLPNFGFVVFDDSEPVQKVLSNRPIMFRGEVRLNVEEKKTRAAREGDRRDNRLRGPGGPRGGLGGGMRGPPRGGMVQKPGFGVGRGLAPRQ
Constant ends, left off below: GGGAGUUCUACAGUCCGACGAUC … UGGAAUUCUCGGGUGUCAAGG
Oligonucleotide	log2 enrichment
AGUCCUGUGCUACACAUCGUAUGUACCGAAUCGGGGAGGGGUGGGGUUUUUUUGGGGAAAGUAUUAUGUUACGCCGUUCGGAUCUGCACU	0.886
GCAGGAAGUAAAAACAAAUGGAAAUGCGUCGGAUAGUGGCAGGGGUGGGGGUUGCUAAGGAAAGGGUGGGAUGGGAGUGGGUAAAGAGUU	1.13
UGGCCCUGGUGGCAUGCGGGUAGGAAGAGGUGGCCUCAUGGAUCGUGGUGGUCCCGGUGGAAUGUUCAGAGGUGGCCGUGGUGGAGACAG	1.03
UCCUGUGCUACACAUCGUAUGUACCGAAUCGGAAAAAAAGGAAAAAAAGGAAAAAAAGGAAAGUAUUAUGUUACGCCGUUCGGAUCUGCA	0.131
ACCAUGCAGGUGAAAAUCUUUGGGAAGUGGGGCAAGGGGGGGAUAGGGAGGGGGGUAACACUUUGGGAACAGGUGGUCCCAGGUCGUUUC	-0.387
CAAGUCCUGUGCUACACAUCGUAUGUACCGAAUCGGGGAGGGGAGGGGAAAGGGGAAAGUAUUAUGUUACGCCGUUCGGAUCUGCACUUC	1.14
ACCAUGCAGGUGGGCAUCUUUGGGAAGUGGGCCAAGGGGGGGAUAGGGAGGGGGGUAACACUUUGGGAACAGGUGGUCCCAGGUCGUUUC	-0.498
CAAGUCCUGUGCUACACAUCGUAUGUACCGAAUCGGGUUUGGGUUUGGUUUGGGGAAAGUAUUAUGUUACGCCGUUCGGAUCUGCACUUC	-0.108
CAAGUCCUGUGCUACACAUCGUAUGUACCGAAUCGGGGAAAGGGGAAAGGGAAAGGAAAGUAUUAUGUUACGCCGUUCGGAUCUGCACUU	-0.286
UGGCCCUGGUGGCAUGCGGGGAGGAAGAGGUGUCCUCAUGGAUCGUGGUGGUCCCGGUGGAAUGUUCAGAGGUGGCCGUGGUGGAGACAG	0.712
CUGUGCUACACAUCGUAUGUACCGAAUCGGGGUUUUUUGGGUUUUUUGGGGUUUUUUGGGGAAAGUAUUAUGUUACGCCGUUCGGAUCUG	-0.189
UGGGAGGUGGAUUUUGUUUAUCUUUUUAGCUCAUUUCCAGGGGUGGGAAUUUUUUUUUAAUAUGUGUCAUGAAUAAAGUUGUUUUUGAAA	1.82
CAAGUCCUGUGCUACACAUCGUAUGUACCGAAUCGGGUGGGAAAAAAAGGGAGGGAAAGUAUUAUGUUACGCCGUUCGGAUCUGCACUUC	0.616
UGGGCGGUGGAUUUUGUUUAUUUUUUUAGCUCAUUUCCAGGGGUGGGAAUUUUUUUUUAAUAUGUGUCAUGAAUAAAGUUGUUUUUGAAA	2.41

Series 3 — technique: aptamer microarray, sandwich; form: DNA with 2'F-ANA; medium: in vitro; tested at: 200 nM; added: Cy3 exosite-II aptamer, 400 nM; reading: higher = stronger binding; oligonucleotide: GGTTGGTGTGGTTGG
Target: Prothrombin, mature alpha-thrombin (F2, Homo sapiens, UniProt P00734)
Notes: whole 15-mer aptamer, many near background
Modification	mean fluorescence intensity [a.u.]
2'F-ANA at 1 3 4 10 11 12 13	69.2
2'F-ANA at 4 5 11 14 15	51.6
2'F-ANA at 3 5 6 7 11 15	83.8
2'F-ANA at 3 5 8 9 11 12 13 14	74
2'F-ANA at 4 6 7 9 10 12 13 14	60.1
2'F-ANA at 1 5 7 10 11 12 13 15	47
2'F-ANA at 3 7 8 9 10	630
2'F-ANA at 2 3 5 7 8 9 10 11 12 15	98.7
2'F-ANA at 7 11 12 13 15	647
2'F-ANA at 2 4 5 6 7 8 9 11	78.6
2'F-ANA at 5 9 10 11	54.5
2'F-ANA at 1 4 9 15	134
2'F-ANA at 1 2 3 7 11 15	236
2'F-ANA at 1 4 5 6 8 9 10 11 12 14	49.9
2'F-ANA at 1 3 4 5 6 7 10	44.1
2'F-ANA at 1 4 6 7 8 10 14 15	46.1
2'F-ANA at 1 3 4 5 6 10 12 14 15	46.1
2'F-ANA at 1 2 4 5 6 8 11 14	45.2
2'F-ANA at 2 5 6 8 9 10 11 12 13 14 15	74.9
2'F-ANA at 2 6 7 9 12 14	148
2'F-ANA at 2 5 7 15	73.8
2'F-ANA at 1 3 4 5 6 9	61.6

Series 4 — technique: protein-binding microarray; form: double-stranded DNA, one strand shown; medium: in vitro; tested at: 250 nM; notes: 60-bp whole probe; added: salmon DNA 0.4 mg/ml; relative to: random background probes; reading: higher = stronger binding; constant ends, left off below: GCCTAGCAC … GTCTTGATTCGCTTGACGCTGCTG
Target: Interferon regulatory factor 7, full length, phosphomimetic (IRF7, Homo sapiens, UniProt Q92985, residues 1-503, S101K/S471D/S472D/S475D/S476D/S477D/S483D/S484D/S487D)
Construct (chain): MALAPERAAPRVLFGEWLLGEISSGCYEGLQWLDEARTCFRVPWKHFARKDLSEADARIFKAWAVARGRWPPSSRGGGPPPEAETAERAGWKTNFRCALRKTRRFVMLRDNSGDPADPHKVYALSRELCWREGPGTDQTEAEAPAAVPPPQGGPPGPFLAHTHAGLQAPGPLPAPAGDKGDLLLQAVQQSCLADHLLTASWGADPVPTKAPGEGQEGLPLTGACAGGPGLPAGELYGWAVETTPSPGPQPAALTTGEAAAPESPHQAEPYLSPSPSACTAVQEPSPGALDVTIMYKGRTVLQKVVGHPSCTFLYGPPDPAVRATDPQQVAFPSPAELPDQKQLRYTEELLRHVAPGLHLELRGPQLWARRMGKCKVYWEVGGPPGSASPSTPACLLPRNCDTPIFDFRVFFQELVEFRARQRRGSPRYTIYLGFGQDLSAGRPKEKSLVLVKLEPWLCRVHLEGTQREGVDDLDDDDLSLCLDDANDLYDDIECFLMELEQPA
Oligonucleotide	log fluorescence
GACCGTATCGACTATCGGGACGTGCTA	0.308 z-score
TTAGGTATCGACTTTTGGTTAGTGCTA	0.464 z-score
TCATTTTTTTTTTGGAAACTGTGCTAG	0.797 z-score
TCACTCACCTAGTTTCATACTGTGCTA	1.2 z-score
TCAAGTGTGCCATATTTAACTGTGCTA	-0.425 z-score
GACGCTTTCCTTTCCCTGACGTGCTAG	1.97 z-score
GACGGTATCGGATTGGGGACGTGCTAG	1.86 z-score
GGAGTTTTCTCATTCGTCATGTGCTAG	0.746 z-score
GACGGTTCCGACTATCGGGACGTGCTA	0.378 z-score
ACCCGAGACACCGCCCCTTTGTGCTAG	-0.011 z-score
GACGGTCTCCTTTTCCTAACGTGCTAG	1.7 z-score
GACGGATTCGGTCTCGGGACGTGCTAG	1.27 z-score
TACGGTATCCTTCTCCTGACGTGCTAG	0.396 z-score
GACGGACGGCTACTGCTGACGTGCTAG	-1.23 z-score
GTTTGTGTGTGTATGTGGTCGTGCTAG	0.0256 z-score
TTAGATCTCAGTCTAGATTAGTGCTAG	-0.0224 z-score
TTAGGTTTCCTTCTACTTTAGTGCTAG	2.36 z-score
CTTTCTTTTTTTCTTTTATTGTGCTAG	3.25 z-score
TCACATATGCTTTTTAGACTGTGCTAG	0.164 z-score
TCACCTATCCAAGTTCCCACTGTGCTA	0.885 z-score

Series 5 — technique: protein binding microarray; form: double-stranded DNA, one strand shown; medium: in vitro; tested at: not given; relative to: not given; reading: higher = stronger binding
Target: Histone acetyltransferase KAT6A, winged helix 2, GST fusion (KAT6A, Homo sapiens, UniProt Q92794, residues 85-181)
Notes: 8-mer, flanks averaged, mean of 2 arrays, mostly near background
Residues (chain): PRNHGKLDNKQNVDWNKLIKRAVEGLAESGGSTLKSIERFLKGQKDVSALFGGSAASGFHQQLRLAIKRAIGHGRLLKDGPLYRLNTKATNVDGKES
Oligonucleotide	E-score
CAGAGGGG	0.153
ATCGGTAG	0.0697
ATTATTGG	-0.086
CAAATTTA	-0.055
CGACTAAC	0.0618
GCGAAACC	0.118
AACTCGGT	-0.0391
AACCCTGC	-0.0481
TATGCGGA	0.00868
CGGGAAAG	0.241
CGAGCGTA	0.0174
AGCCATCG	-0.0571
ACTGGATG	-0.0356
CTGCGCTA	-0.0682
CGCCGTTC	0.047
ATCCAAAG	0.0951
TGGAACAA	0.0438
AGACCGCC	0.0309
CCGGTGTA	0.0612
GAGGTGAA	0.108
ATAGCGAC	-0.0473
AACCCACC	0.144
CTAAGGCC	-0.00613
GAATACGC	-0.14
GAAGAAAC	0.125

Excerpt of the above (series 3):
Modification	mean fluorescence intensity [a.u.]
2'F-ANA at 1 2 3 7 11 15	236
2'F-ANA at 1 4 5 6 8 9 10 11 12 14	49.9
2'F-ANA at 1 3 4 5 6 7 10	44.1
2'F-ANA at 1 4 6 7 8 10 14 15	46.1
2'F-ANA at 1 3 4 5 6 10 12 14 15	46.1
2'F-ANA at 1 2 4 5 6 8 11 14	45.2
2'F-ANA at 2 5 6 8 9 10 11 12 13 14 15	74.9
2'F-ANA at 2 6 7 9 12 14	148
2'F-ANA at 2 5 7 15	73.8
